Experimental data collected from several papers.
Numbered parts are unrelated; each lists some results of a single study.
UniProt P41595, sequence (whole entry, looked up): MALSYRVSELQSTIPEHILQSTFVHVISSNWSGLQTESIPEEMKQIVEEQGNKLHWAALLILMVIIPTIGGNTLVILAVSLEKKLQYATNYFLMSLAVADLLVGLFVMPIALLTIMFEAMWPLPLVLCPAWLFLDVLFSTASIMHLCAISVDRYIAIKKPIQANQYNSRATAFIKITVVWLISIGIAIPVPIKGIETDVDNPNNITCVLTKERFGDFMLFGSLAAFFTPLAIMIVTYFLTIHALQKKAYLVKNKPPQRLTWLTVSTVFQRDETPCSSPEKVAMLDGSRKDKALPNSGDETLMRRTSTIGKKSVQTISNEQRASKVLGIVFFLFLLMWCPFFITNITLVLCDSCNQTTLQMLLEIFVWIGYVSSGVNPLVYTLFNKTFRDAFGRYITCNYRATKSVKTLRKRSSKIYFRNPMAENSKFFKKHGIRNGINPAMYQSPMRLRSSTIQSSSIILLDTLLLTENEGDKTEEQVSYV
UniProt Q13557, sequence (whole entry, looked up): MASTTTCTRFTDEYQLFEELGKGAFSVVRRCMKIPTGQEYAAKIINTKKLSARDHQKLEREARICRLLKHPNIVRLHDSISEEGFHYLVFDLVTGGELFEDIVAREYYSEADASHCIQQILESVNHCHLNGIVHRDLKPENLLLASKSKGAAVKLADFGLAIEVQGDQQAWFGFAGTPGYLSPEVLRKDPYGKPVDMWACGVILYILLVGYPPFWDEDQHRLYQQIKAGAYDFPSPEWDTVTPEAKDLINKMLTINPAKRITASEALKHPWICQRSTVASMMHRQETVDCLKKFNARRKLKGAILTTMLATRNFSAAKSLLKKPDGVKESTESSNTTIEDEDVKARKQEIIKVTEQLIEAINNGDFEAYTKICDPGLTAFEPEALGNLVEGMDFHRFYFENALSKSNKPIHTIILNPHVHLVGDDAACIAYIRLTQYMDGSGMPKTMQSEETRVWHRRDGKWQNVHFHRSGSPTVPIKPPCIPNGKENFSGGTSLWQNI
UniProt P36897, sequence (whole entry, looked up): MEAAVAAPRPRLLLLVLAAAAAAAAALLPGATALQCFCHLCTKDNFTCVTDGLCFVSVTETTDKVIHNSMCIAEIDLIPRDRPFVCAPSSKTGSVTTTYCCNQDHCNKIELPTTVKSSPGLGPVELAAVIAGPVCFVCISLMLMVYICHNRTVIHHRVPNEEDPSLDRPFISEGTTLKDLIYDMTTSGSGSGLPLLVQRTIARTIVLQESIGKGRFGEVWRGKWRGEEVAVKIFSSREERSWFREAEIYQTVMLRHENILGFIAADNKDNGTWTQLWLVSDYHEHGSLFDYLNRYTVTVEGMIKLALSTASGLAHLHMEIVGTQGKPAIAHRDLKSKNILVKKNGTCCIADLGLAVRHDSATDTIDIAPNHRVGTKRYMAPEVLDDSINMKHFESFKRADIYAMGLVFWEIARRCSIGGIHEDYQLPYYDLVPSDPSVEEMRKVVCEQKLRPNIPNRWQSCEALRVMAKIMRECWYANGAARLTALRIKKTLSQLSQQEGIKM
UniProt Q96RR4, sequence (whole entry, looked up): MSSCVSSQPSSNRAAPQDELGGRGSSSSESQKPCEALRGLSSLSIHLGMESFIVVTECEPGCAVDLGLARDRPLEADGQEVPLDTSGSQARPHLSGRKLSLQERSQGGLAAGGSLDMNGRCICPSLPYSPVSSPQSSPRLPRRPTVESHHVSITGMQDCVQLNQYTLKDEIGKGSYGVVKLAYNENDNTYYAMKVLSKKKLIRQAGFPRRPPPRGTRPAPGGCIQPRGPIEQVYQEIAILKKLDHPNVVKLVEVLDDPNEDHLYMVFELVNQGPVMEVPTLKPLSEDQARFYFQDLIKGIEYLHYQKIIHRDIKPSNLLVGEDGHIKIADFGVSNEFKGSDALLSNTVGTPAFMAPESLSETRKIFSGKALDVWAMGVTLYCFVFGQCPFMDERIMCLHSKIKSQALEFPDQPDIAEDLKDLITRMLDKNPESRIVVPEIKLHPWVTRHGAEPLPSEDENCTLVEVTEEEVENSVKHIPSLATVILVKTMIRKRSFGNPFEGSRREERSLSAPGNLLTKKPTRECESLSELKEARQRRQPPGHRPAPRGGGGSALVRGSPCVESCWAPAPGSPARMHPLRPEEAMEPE
UniProt P06239, sequence (whole entry, looked up): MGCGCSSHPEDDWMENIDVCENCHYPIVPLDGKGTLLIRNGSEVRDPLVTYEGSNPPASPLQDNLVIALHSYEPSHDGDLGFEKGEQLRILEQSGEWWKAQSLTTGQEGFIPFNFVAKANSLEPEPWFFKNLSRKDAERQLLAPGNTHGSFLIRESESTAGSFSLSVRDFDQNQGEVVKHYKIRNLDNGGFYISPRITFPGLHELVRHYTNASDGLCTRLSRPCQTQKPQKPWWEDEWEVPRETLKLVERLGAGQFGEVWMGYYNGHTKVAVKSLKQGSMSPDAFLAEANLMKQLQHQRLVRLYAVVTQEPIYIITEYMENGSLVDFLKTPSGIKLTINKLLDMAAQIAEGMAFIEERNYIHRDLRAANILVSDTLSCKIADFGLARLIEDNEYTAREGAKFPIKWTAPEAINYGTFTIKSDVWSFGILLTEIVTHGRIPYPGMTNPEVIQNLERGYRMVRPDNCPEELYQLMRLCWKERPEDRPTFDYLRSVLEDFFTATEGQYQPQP

Set 1
SMILES: Cc1ccc(NC(=O)c2ccc(CN3CCN(C)CC3)cc2)cc1Nc1nccc(-c2cccnc2)n1
Effect on: enzyme activity
Mode: inhibitor
Concentration: 0.5 µM
Baseline: control
target | remaining activity [%]
STE20/SPS1-related proline-alanine-rich protein kinase (STK39, Homo sapiens, UniProt Q9UEW8) | 93.2
Calcium/calmodulin-dependent protein kinase type II subunit delta (CAMK2D, Homo sapiens, UniProt Q13557) | 97.4
TGF-beta receptor type-1 (TGFBR1, Homo sapiens, UniProt P36897) | 99.7
Calcium/calmodulin-dependent protein kinase kinase 2 (CAMKK2, Homo sapiens, UniProt Q96RR4) | 97.5

Set 2
Target: TAR DNA-binding protein 43, full length, His tag (TARDBP, Homo sapiens, UniProt Q13148, residues 1-414)
Technique: RNA Bind-n-Seq
Form: RNA
Sample: in vitro
Concentration: 20 nM
Setting: 6-mer, flanks averaged, single round
With: 150 mM LiCl
Baseline: input library
Direction: higher = stronger binding
Strand | 6-mer enrichment (R)
UCCGAU | 0.824
GCGGCU | 1.01
GAUAUG | 1.01
UACGCU | 0.843
GAUGCA | 0.929
GAAAUG | 1
AGCCUA | 0.859
UGUGCA | 1.21

Set 3
Target: RING finger protein unkempt homolog, zinc fingers 1-6, SBP tag (UNK, Homo sapiens, UniProt Q9C0B0, residues 30-357)
UniProt Q9C0B0, sequence (30-357, looked up): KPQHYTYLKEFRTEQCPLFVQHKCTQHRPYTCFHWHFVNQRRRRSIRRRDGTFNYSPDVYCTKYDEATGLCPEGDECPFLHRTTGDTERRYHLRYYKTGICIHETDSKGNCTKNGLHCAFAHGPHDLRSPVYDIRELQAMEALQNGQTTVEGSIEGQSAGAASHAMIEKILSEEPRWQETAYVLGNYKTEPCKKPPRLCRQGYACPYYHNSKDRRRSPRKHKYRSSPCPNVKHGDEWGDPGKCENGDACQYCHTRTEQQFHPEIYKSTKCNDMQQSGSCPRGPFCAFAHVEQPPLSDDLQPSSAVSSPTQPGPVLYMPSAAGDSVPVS
Technique: RNA Bind-n-Seq
Form: RNA
Sample: in vitro
Concentration: 100 nM
Setting: RNA with constant flanks, vertebrate orthologous sites, ends assumed
Baseline: input RNA pool
Direction: higher = stronger binding
All sequences stand within: GGGAGUUCUACAGUCCGACGAUC … CAACAGAGGAUUGAGCAUCA
Strand | bound/input enrichment [ratio]
AGUAUCCCAGUUGUGCCGUGUUGGGUUGGCGUUGUACAGAAAUUAACAGCCAUAUUGGUCUAGAAAUGUUAAACAUAAUUUUUUCCAUUUGUACAGGGGUAACGCACUGUAUUAAAUAUG | 0.771
AUUUAAAAUGUAGUUAGUUAUAUUUAAUGACCUCAUUCCUAAGUUCCUUUUUCGUUAAUGUAGCUUUCAUUUCUGUUAUUGCUGUUUGAAUAAUAUGGUUAAAUAGAAGGUUUGUGCCAG | 0.515
GAGGGAGGUUUACUUCUUUCAACUUCAGUUUUUCAGGUUGUAGCUGAUCUGUUUUCUUUUUUUCUCUCCUCCUCGCUGUUCUUUUGCUUCCUUUCUGUCUCCCCAACUUCAAAUACACAA | 0.804
GAGUGCUUAAGCCGCCAACAGUUAGAAGAUGCUAUUUAUUUGUGUCUGUAAGUUUGUACAUAGUAAUGCCAACCUUGUUGCUGAAUUUUUUAUUUGUGGGGGAUGAGUUUGAAUUUUGUU | 1.51
UGCUGUUAAUGCACUGUAUACUAGGCAUCUUCUGACCUUAGUGUAAUCUAGGAGAUUUUAUAGUUUUAUUUUAAUGAAGUCUGGAUUGAGGCAAAGCUGGUAGGAGUACGUAGUCUUUUA | 2.75
GUUGUGACCCAUUUAACAUACACAGGAAAGUAUCAAAGAAAAACUUACGCGCAAUCGACUUAGAUGAUGCAGCUUUUCUAAGUGCCAAGUUUGGAAGACAGUUUGUACCUGGUUGGAAGC | 0.882
AUUCAAACCUGUGGUGCCAUGGCCUCAUGUGGAAGGAGUAGAAGUGGACUUAGAGUCUAUUAGAAGAAAAAACAAGGCCAAAAAUGAACAGGAGCACCAUGCUGGAGGAGAUUCCCAAAA | 0.416
CUUUUAAUCGAUUAUGUCUGUAAAUGUAUAUUGAGAGAAUUGAAGUAUUUAUAAACAGAGUGAUUUAUUUAAGGAAAAGCUCAUUCCUCUUUCAUAUGGUGGUCUGUGUUAAUUCUCUUU | 0.811

Further values, each from its own experiment
Compound | target | effect on | technique | concentration | quantity | result
C[C@@]1(Cc2ccc(C#N)cc2)C(=O)N(c2cc(Cl)cc(Cl)c2)c2ncc(C(=O)NC3(c4nc(C5CCC5)no4)CC3)n21 | Tyrosine-protein kinase Lck (LCK, Homo sapiens, UniProt P06239) | cell-free assay | competition with immobilised ligand | 1 µM | remaining binding | 100%
O=C(Nc1cccnn1)N1CCC(=Cc2cccc(Oc3ccc(C(F)(F)F)cn3)c2)CC1 | 5-hydroxytryptamine receptor 2B (HTR2B, Homo sapiens, UniProt P41595) | binding | radioligand binding | 10 µM | inhibition | 55.7%

Some of these lines once more (set 1):
target | remaining activity [%]
Calcium/calmodulin-dependent protein kinase type II subunit delta (CAMK2D, Homo sapiens, UniProt Q13557) | 97.4
